Measurements collected from several papers.
Lines come from different studies, so protocols differ. Numbers after ± are the reported error. ≈ marks a conversion by molar mass, not a printed value.
Organism: Candida albicans

CCN1CCN(Cn2nc(C34CC5CC(CC(C5)C3)C4)n(-c3ccccc3)c2=S)CC1  inhibition zone diameter (IFO 0583; 200 µg/disc, 48 h, 37 °C): < 10 mm
C[C@@H](c1ccn(Cc2ccc(C#N)cc2)n1)[C@](O)(Cn1cnnn1)c1ccc(F)cc1F  MIC (growth, broth microdilution; SC5314; 24 h, 30 °C, ≥50% inhibition): 0.016 µg/mL (≈ 0.0367 µM)
COc1ccc(NC(=O)CSc2nc3ccccc3c(=O)n2-c2ccc(S(N)(=O)=O)cc2)cc1  inhibition zone (microbial growth, well diffusion; ATCC10231; 500 µg/mL, 72 h): 21 mm
COc1ccc(/N=N/C(=S)N2CCCCC2)cc1  IC50 (microbial growth; ATCC10231; 24 h): > 50 µM
CC(=O)[O-].O.O.[O-]c1ccc(Br)cc1C=NCCN1CCOCC1.[Zn+2]  inhibition zone diameter (20 µL of 100 µM per disc): 27 mm
O=c1c2ccccc2sn1-c1cc(Br)cc(Br)c1  MIC (growth, broth dilution; ATCC 64124; MIC-0): 6.25 µg/mL (≈ 16.2 µM)
FC(F)(F)c1cc(CSc2nnc(C34CC5CC(CC(C5)C3)C4)n2-c2ccccc2)cc(C(F)(F)F)c1  inhibition zone (microbial growth, disc diffusion; IFO0583; 200 µg/disc, 48 h): 13 mm
C[C@@H](c1ccn(Cc2ccc(C(C)(C)C)cc2)n1)[C@](O)(Cn1cnnn1)c1ccc(F)cc1F  MIC (growth, broth microdilution; SC5314; 24 h, 30 °C, ≥50% inhibition): 2 µg/mL (≈ 4.29 µM)
N=C(N)NCCC[C@@H]1NC(=O)[C@H](CCCNC(=N)N)NC(=O)[C@H](CCCNC(=N)N)NC(=O)[C@H](Cc2ccc3ccccc3c2)NC(=O)[C@H](Cc2c[nH]c3ccccc23)NC(=O)[C@H](Cc2ccc3ccccc3c2)NC(=O)[C@H](CCCNC(=N)N)NC1=O  biofilm mass reduction (XTT; ATCC 60193; 2 × MIC): 60 to 62%
C[C@@H](c1ccn(Cc2ccc(Cl)c(Cl)c2)n1)[C@](O)(Cn1cnnn1)c1ccc(F)cc1F  MIC (growth, broth microdilution; SC5314; 24 h, 30 °C, ≥50% inhibition): < 0.008 µg/mL
NS(=O)(=O)c1ccc(-n2c(SCC(=O)Nc3ccc([N+](=O)[O-])cc3[N+](=O)[O-])nc3ccccc3c2=O)cc1  inhibition zone (microbial growth, well diffusion; ATCC10231; 500 µg/mL, 72 h): 24 mm
COc1ccc2c(c1CC=C(C)C)O[C@H]1c3cc4c(cc3OC[C@@]21O)OC(C)(C)C=C4  antibacterial activity (ATCC 10231; concentration not given): inactive
NS(=O)(=O)c1ccc(-n2c(S)nc3ccccc3c2=O)cc1  inhibition zone (microbial growth, well diffusion; ATCC10231; 500 µg/mL, 72 h): 14 mm
CCCCCCCCCC1CC2CCCC3CC(CCCCCCCCC)NC(=N1)N23 (stereo not drawn)  IC50 (fungal growth; ATCC 90028): 3.89 µM
CC(=NNC(=N)N)c1nnn(-c2ccc(C#CC3(O)CCCCC3)cc2)c1C  inhibition zone diameter (ATCC 10231; concentration not given): 37.7 ± 0.47 mm
c1ccc(CSc2nnc(C34CC5CC(CC(C5)C3)C4)n2-c2ccccc2)cc1  inhibition zone diameter (IFO 0583; 200 µg/disc, 48 h, 37 °C): < 10 mm
C[C@@H](c1ccn(Cc2ccc(Cl)cc2)n1)[C@](O)(Cn1cnnn1)c1ccc(F)cc1F  MIC (growth, broth microdilution; SC5314; 24 h, 30 °C, ≥50% inhibition): < 0.008 µg/mL
COc1c(CC=C(C)C)c(O)cc2c1-c1oc3c(CC=C(C)C)c(O)ccc3c1CO2  antibacterial activity (ATCC 10231; concentration not given): inactive
COc1cc(NC(=O)CSc2nc3ccccc3c(=O)n2-c2ccc(S(N)(=O)=O)cc2)cc(OC)c1  inhibition zone (microbial growth, well diffusion; ATCC10231; 500 µg/mL, 72 h): 20 mm
C[C@@H](c1ccn(Cc2ccc(F)c(C(F)(F)F)c2)n1)[C@](O)(Cn1cnnn1)c1ccc(F)cc1F  MIC (growth, broth microdilution; SC5314; 24 h, 30 °C, ≥50% inhibition): 0.0625 µg/mL (≈ 0.126 µM)
COc1ccc2c(oc3c4ccc(O)cc4oc(=O)c23)c1CC=C(C)C  antibacterial activity (ATCC 10231; concentration not given): inactive
C[C@@H](c1ccn(Cc2cccc(Cl)c2F)n1)[C@](O)(Cn1cnnn1)c1ccc(F)cc1F  MIC (growth, broth microdilution; SC5314; 24 h, 30 °C, ≥50% inhibition): < 0.008 µg/mL
CCCCCC1CC2CCCC3CC(C)N=C(N1)N32 (stereo not drawn)  MFC (fungal growth; ATCC 90028): 31.7 µM (≈ 8.36 µg/mL)
CCCCn1ccc([C@H](C)[C@](O)(Cn2cnnn2)c2ccc(F)cc2F)n1  MIC (growth, broth microdilution; SC5314; 24 h, 30 °C, ≥50% inhibition): < 0.008 µg/mL
COc1ccc(/N=N/C(=S)N2CCCC2)cc1  IC50 (microbial growth; ATCC10231; 24 h): > 50 µM
C[C@@H](c1ccn(Cc2ccc(F)c(F)c2)n1)[C@](O)(Cn1cnnn1)c1ccc(F)cc1F  MIC (growth, broth microdilution; SC5314; 24 h, 30 °C, ≥50% inhibition): < 0.008 µg/mL
Clc1ccc(CSc2nnc(C34CC5CC(CC(C5)C3)C4)n2-c2ccccc2)cc1  inhibition zone diameter (IFO 0583; 200 µg/disc, 48 h, 37 °C): < 10 mm
CC(C)=CCc1cc2c(cc1O)OCc1c-2oc2c(CC=C(C)C)c(O)ccc12  antibacterial activity (ATCC 10231; concentration not given): inactive
S=c1n(CN2CCN(c3ccccn3)CC2)nc(C23CC4CC(CC(C4)C2)C3)n1-c1ccccc1  inhibition zone (microbial growth, disc diffusion; IFO0583; 200 µg/disc, 48 h): 13 mm
Cc1cc([N+](=O)[O-])ccc1NC(=O)CSc1nc2ccccc2c(=O)n1-c1ccc(S(N)(=O)=O)cc1  MBC (ATCC 10231): 2.12 µg/mL (≈ 4.03 µM)
S=c1n(CN2CCN(c3ccccc3)CC2)nc(C23CC4CC(CC(C4)C2)C3)n1-c1ccccc1  inhibition zone diameter (IFO 0583; 200 µg/disc, 48 h, 37 °C): < 10 mm
COc1cc(NC(=O)CSc2nc3ccccc3c(=O)n2-c2ccc(S(N)(=O)=O)cc2)cc(OC)c1OC  inhibition zone (microbial growth, well diffusion; ATCC10231; 500 µg/mL, 72 h): 14 mm
Fc1ccc(CSc2nnc(C34CC5CC(CC(C5)C3)C4)n2-c2ccccc2)cc1  inhibition zone diameter (IFO 0583; 200 µg/disc, 48 h, 37 °C): < 10 mm
CCCCCCCCCC1CC2CCC3CC(CCCCCCCCC)NC(=N1)N23 (stereo not drawn)  MFC (fungal growth; ATCC 90028): 5.99 µM (≈ 2.5 µg/mL)
Cn1c(SCCN2CCCCC2)nnc1C12CC3CC(CC(C3)C1)C2  inhibition zone diameter (IFO 0583; 200 µg/disc, 48 h, 37 °C): < 10 mm
Cc1ccccc1C=NNC(=O)c1ccc(-c2nc3cc(F)ccc3[nH]2)cc1  MIC90 (microbial growth; ATCC24433): > 1000 µg/mL

A few entries again:
C[C@@H](c1ccn(Cc2ccc(F)c(C(F)(F)F)c2)n1)[C@](O)(Cn1cnnn1)c1ccc(F)cc1F  MIC (growth, broth microdilution; SC5314; 24 h, 30 °C, ≥50% inhibition): 0.0625 µg/mL (≈ 0.126 µM)
COc1ccc2c(oc3c4ccc(O)cc4oc(=O)c23)c1CC=C(C)C  antibacterial activity (ATCC 10231; concentration not given): inactive
C[C@@H](c1ccn(Cc2cccc(Cl)c2F)n1)[C@](O)(Cn1cnnn1)c1ccc(F)cc1F  MIC (growth, broth microdilution; SC5314; 24 h, 30 °C, ≥50% inhibition): < 0.008 µg/mL
CCCCCC1CC2CCCC3CC(C)N=C(N1)N32 (stereo not drawn)  MFC (fungal growth; ATCC 90028): 31.7 µM (≈ 8.36 µg/mL)
CCCCn1ccc([C@H](C)[C@](O)(Cn2cnnn2)c2ccc(F)cc2F)n1  MIC (growth, broth microdilution; SC5314; 24 h, 30 °C, ≥50% inhibition): < 0.008 µg/mL
